Results of several laboratories.
“And” joins repeats or separate records; there may be more than shown. Numbers after ± are the reported error.
ache: Acetylcholinesterase (ache, Electrophorus electricus, UniProt O42275)
Chain of UniProt O42275 (whole entry, looked up): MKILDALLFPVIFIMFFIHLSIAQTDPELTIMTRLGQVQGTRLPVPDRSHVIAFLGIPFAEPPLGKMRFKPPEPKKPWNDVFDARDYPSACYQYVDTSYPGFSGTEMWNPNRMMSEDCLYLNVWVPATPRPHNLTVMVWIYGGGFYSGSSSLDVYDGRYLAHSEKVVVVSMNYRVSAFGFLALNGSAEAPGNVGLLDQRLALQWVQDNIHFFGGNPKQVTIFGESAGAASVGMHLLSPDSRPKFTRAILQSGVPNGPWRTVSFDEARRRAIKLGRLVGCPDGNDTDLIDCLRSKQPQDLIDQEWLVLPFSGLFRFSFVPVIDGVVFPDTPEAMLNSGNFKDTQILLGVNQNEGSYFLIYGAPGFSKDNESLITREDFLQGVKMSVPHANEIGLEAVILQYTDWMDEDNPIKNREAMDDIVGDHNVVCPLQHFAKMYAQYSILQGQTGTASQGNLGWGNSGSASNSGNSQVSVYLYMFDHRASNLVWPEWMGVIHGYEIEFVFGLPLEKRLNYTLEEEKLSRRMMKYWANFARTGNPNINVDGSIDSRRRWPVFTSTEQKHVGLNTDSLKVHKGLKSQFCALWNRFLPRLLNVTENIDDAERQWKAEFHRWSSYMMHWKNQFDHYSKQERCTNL
Tripartite terminase subunit 3 C-terminal nuclease domain: Tripartite terminase subunit 3, C-terminal nuclease domain (Human betaherpesvirus 5, UniProt P16732)
Chain of UniProt P16732 (whole entry, looked up): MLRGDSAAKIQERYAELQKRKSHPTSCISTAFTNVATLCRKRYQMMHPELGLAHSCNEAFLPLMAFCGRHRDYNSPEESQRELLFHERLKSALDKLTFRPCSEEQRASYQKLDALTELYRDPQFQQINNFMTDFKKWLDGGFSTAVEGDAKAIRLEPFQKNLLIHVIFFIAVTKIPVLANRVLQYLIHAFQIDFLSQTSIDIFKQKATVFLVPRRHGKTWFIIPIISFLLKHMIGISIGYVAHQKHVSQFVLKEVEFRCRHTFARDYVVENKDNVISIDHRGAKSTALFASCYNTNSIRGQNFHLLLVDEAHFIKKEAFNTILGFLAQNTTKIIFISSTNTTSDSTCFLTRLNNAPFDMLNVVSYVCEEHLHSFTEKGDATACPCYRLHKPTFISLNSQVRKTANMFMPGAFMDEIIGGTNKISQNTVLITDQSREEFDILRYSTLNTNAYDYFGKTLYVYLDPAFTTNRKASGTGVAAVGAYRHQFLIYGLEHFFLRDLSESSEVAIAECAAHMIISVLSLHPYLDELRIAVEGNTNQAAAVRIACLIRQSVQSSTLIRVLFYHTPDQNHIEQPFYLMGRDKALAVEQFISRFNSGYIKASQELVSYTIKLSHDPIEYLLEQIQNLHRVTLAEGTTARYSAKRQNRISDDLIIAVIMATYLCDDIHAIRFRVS
AKR1C2: Aldo-keto reductase family 1 member C2 (AKR1C2, Homo sapiens, UniProt P52895)
Chain of UniProt P52895 (whole entry, looked up): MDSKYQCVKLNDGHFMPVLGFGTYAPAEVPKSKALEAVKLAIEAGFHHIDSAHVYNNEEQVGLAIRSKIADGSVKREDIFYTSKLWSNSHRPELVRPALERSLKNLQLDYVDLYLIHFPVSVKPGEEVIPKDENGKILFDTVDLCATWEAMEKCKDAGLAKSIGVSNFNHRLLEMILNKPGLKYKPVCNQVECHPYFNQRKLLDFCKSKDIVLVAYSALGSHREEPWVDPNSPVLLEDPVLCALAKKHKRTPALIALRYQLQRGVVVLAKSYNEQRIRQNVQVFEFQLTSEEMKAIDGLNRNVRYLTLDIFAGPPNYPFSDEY
AKR1C1: Aldo-keto reductase family 1 member C1 (AKR1C1, Homo sapiens, UniProt Q04828)
Chain of UniProt Q04828 (whole entry, looked up): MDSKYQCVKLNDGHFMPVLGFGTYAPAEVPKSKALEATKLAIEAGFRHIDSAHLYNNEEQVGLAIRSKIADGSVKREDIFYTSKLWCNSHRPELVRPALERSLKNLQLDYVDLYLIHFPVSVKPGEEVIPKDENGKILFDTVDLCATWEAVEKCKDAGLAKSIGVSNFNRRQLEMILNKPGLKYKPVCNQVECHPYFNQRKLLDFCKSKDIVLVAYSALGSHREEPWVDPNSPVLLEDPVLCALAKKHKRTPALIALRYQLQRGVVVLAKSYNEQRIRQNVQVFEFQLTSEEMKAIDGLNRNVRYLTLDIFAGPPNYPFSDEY
Chain of UniProt Q15858 (whole entry, looked up): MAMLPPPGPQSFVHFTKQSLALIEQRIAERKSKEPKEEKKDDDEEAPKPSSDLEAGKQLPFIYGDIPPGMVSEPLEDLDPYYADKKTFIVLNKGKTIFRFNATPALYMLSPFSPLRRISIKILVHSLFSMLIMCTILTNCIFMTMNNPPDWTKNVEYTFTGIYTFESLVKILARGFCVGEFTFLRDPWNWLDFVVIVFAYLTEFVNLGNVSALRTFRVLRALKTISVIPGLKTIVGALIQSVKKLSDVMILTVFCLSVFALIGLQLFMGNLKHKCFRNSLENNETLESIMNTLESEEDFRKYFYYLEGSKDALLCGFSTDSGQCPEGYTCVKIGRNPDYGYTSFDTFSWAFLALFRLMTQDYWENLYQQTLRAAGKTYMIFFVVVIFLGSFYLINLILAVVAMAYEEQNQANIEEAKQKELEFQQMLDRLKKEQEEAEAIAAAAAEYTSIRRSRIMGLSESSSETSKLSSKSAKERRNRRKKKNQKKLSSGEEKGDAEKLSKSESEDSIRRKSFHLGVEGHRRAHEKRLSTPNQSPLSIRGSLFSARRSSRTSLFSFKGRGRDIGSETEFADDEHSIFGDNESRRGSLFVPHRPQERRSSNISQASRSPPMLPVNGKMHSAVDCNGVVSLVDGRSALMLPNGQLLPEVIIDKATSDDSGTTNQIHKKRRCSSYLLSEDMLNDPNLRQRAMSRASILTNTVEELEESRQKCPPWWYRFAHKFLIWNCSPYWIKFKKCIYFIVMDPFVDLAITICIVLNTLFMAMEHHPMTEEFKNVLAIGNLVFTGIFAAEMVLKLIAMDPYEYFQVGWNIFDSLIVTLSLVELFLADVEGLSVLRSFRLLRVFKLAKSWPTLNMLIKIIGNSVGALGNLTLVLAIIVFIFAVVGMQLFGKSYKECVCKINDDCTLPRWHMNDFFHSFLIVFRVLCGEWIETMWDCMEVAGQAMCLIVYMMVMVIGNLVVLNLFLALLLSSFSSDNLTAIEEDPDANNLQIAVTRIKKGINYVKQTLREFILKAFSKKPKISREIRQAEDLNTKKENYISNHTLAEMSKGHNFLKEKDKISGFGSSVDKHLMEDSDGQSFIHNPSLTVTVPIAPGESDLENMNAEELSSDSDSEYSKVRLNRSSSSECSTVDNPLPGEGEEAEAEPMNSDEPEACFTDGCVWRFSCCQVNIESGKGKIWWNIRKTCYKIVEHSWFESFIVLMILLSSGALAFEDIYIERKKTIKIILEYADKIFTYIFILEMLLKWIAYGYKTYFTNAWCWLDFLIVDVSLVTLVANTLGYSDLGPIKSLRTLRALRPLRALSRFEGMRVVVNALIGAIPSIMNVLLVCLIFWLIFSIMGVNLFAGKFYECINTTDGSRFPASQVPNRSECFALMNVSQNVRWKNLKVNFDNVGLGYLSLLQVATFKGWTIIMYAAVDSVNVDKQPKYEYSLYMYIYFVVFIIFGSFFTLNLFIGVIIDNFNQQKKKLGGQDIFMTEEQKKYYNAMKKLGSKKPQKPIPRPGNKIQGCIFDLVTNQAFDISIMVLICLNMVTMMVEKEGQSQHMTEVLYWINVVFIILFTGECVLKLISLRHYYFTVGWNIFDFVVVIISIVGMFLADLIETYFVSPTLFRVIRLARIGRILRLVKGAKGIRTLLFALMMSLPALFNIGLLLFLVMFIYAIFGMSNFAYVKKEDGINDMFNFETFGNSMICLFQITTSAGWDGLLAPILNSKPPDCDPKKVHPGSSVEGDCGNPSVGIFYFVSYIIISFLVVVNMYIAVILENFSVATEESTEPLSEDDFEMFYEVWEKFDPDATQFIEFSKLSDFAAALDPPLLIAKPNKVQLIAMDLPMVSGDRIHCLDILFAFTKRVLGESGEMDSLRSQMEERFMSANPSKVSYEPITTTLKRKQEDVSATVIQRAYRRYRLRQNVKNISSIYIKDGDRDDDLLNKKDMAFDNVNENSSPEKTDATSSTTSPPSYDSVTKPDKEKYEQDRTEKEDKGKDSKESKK
Chain of UniProt Q9HBA0 (whole entry, looked up): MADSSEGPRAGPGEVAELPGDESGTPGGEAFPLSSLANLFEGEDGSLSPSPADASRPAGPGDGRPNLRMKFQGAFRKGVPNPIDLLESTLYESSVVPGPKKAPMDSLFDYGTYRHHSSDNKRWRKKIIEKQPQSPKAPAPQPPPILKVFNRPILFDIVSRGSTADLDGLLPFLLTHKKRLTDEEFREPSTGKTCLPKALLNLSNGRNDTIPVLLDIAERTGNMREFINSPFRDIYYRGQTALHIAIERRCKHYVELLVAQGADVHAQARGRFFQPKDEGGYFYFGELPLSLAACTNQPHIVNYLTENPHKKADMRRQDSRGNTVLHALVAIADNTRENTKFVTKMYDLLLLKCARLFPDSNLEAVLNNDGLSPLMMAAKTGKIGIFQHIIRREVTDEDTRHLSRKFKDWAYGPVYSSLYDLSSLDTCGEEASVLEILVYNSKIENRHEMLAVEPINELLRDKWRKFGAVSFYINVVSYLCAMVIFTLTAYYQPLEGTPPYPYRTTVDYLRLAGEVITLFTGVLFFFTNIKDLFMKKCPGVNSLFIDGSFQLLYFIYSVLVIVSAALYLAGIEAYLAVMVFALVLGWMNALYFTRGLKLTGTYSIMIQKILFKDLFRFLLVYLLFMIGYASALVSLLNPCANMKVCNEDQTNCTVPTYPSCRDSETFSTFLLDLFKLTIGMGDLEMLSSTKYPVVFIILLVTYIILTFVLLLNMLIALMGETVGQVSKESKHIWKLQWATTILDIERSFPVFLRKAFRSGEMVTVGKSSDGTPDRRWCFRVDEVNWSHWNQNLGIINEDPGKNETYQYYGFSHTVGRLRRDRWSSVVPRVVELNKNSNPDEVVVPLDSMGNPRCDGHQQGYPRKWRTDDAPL
Chain of UniProt P09936 (whole entry, looked up): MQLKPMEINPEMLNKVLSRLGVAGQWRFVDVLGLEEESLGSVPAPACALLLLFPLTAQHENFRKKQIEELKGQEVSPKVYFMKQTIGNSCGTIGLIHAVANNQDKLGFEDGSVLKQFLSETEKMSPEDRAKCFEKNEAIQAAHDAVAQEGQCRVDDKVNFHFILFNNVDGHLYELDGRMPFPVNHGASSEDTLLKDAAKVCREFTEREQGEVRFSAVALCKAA

Structure (SMILES) | target | assay | system | setting | scale | inhibition
CCOC(=O)[C@H]1Cc2c(cc([N+](=O)[O-])cc2[N+](=O)[O-])[C@H](O)[C@]12C(=O)Nc1ccccc12 | MDM2 (Homo sapiens, UniProt Q00987) |  |  | 1 µM |  | 47.8%
NCC(CCC(N)C(=O)O)CC1OC(n2cnc3c(N)ncnc32)C(O)C1O (stereo not shown) | PRMT5 (Homo sapiens, UniProt O14744) | enzyme activity, inhibitor |  | 20 µM |  | > 50%
CCN(Cc1ccccc1)C(=O)CCc1nc(CN2CCN(C(=O)Cc3ccc(OC)c(OC)c3)CC2)no1 | SCN9A (Homo sapiens, UniProt Q15858) | sodium current, whole-cell patch clamp | HEK293, stable | 20 µM |  | 52 ± 6%
Cc1ccc(N2CC3CCC(C2)N3C)cc1C(=O)N[C@H](C)c1cc(-c2cnn(C)c2)nc2ccccc12 | UCHL1 (Homo sapiens, UniProt P09936) | enzyme activity |  | concentration not given |  | no inhibition
COc1ccnc(Nc2c3c(nc4cc(C)ccc24)CCCC3)c1 | ache | enzyme activity, inhibitor, Ellman |  | 100 µM |  | > 90%
CC(C)c1ccc(C(=O)Nc2ccc(CN3CCN(C)CC3)c(C(F)(F)F)c2)cc1C#Cc1cnc2cccnn12 | RIPK1 (Homo sapiens, UniProt Q13546, L157F/M92T) | autophosphorylation, inhibitor |  | concentration not given, FLAG-tagged, residues 1-327 |  | inhibited
CC1CCc2nc3ccccc3c(Nc3ccc4ccccc4n3)c2C1 (stereo not shown) | ache | enzyme activity, inhibitor, Ellman |  | 100 µM |  | 38.9%
CC1(C)OB(c2ccc(CNC(=O)c3cn(Cc4ccc(F)cc4)cc(O)c3=O)cc2)OC1(C)C | Tripartite terminase subunit 3 C-terminal nuclease domain | endonuclease activity, inhibitor, ELISA |  | 20 µM |  | 5%
CC(=O)NC(Cc1ccc(Br)c(Cl)c1)C(=O)N[C@@H](C)C(=O)N1CCC[C@H]1C(=O)N1CCC[C@H]1C(=O)N[C@@H](CCC(=O)O)C(=O)N[C@@H](Cc1c[nH]cn1)C(=O)N[C@@H](CO)C(=O)N[C@H](C(=O)N[C@@H](C)C(N)=O)[C@@H](C)OP(=O)(O)O (stereo partly shown) | SRC (Homo sapiens, UniProt P12931) |  |  | 10 µM |  | 1.67 ± 0.08%
COc1ccc(Nc2c3c(nc4ccc(Cl)cc24)CCCC3)nc1 | ache | enzyme activity, inhibitor, Ellman |  | 100 µM |  | > 90%
CCc1ccc(Nc2c(NC3CCN(Cc4ccccc4)CC3)c(=O)c2=O)cc1 | ache | enzyme activity, inhibitor, Ellman |  | 12.5 µM |  | 43.2%
CN(C(=N)Nc1ccc(Br)c2ccccc12)c1cccc(C(F)(F)F)c1 | NMDA receptor PCP site, rat | binding, inhibitor | brain membranes | 1.0 µM, together with: [3H]TCP |  | -2.6%
O=C(O)/C=C/c1ccc(O)cc1 | alpha-glucosidase | enzyme activity |  | 1000 µg/mL |  | 74.6% and 79.3%
C[C@@]12CC[C@@H]3c4cc(Cl)c(O)c(Cl)c4CC[C@H]3[C@@H]1CCC2=O | AKR1C2 | enzyme activity, inhibitor, absorbance |  | 10 µM, pH 9 |  | 84.1%
COc1ccnc(Nc2c3c(nc4ccccc24)CCC(C)C3)c1 (stereo not shown) | ache | enzyme activity, inhibitor, Ellman |  | 100 µM |  | 66.6%
COc1cccc(CCNc2c(NC3CCN(Cc4ccccc4)CC3)c(=O)c2=O)c1 | ache | enzyme activity, inhibitor, Ellman |  | 12.5 µM |  | 45.7%
C[C@@]12CC[C@H]3[C@@H](CCC4=CC(=O)C=C[C@@]43F)[C@@H]1CCC2=O | AKR1C1 | enzyme activity, inhibitor, absorbance |  | 100 µM, pH 9 |  | 50%

Structure (SMILES) | target | assay | system | setting | scale | inhibition
O=C(C[P+]([Au-][Cl])(c1ccccc1)c1ccccc1)[O][Ti+2][O]C(=O)C[P+]([Au-][Cl])(c1ccccc1)c1ccccc1.c1cc[cH-]c1.c1cc[cH-]c1 | MAPKAPK5 (Homo sapiens, UniProt Q8IW41) | kinase activity |  | 10 µM |  | ≥ 50%
O=c1c(NCCc2ccc(O)cc2)c(NC2CCN(Cc3ccccc3)CC2)c1=O | ache | enzyme activity, inhibitor, Ellman |  | 25 µM |  | 63.9%
COc1cn(Cc2ccc(F)cc2)cc(C(=O)NCc2ccc(F)cc2F)c1=O | Tripartite terminase subunit 3 C-terminal nuclease domain | endonuclease activity, inhibitor, ELISA |  | 20 µM |  | 6%
C[C@@]12CC[C@@H]3c4ccc(O)c(Cl)c4CC[C@H]3[C@@H]1CCC2=O | AKR1C2 | enzyme activity, inhibitor, absorbance |  | 100 µM, pH 9 |  | 80%
S=C(NCc1ccccn1)NCc1ccccn1 | AMY2 (Sus scrofa, UniProt P00690) | enzyme activity, inhibitor |  | 125 µg/mL |  | 50%
O=C(NC1CCN(c2ncnc3[nH]cnc23)CC1)c1cccc(NS(=O)(=O)c2ccc(C(F)(F)F)cc2)c1 | RNMT (Homo sapiens, UniProt O43148) | enzyme activity, inhibitor |  | concentration not given |  | inactive
FC(F)(F)c1ccc(Nc2c3c(nc4ccccc24)CCCC3)cc1 | ache | enzyme activity, inhibitor, Ellman |  | 100 µM |  | > 90%
C[C@]12CCC[C@H]1[C@@H]1CCc3c(cc(Br)c(O)c3Br)[C@H]1CC2 | AKR1C1 | enzyme activity, inhibitor, absorbance |  | 100 µM, pH 9 |  | 64.3%
O=C(NCc1cccc(Cl)c1F)c1cn(Cc2ccc(F)cc2)cc(O)c1=O | Tripartite terminase subunit 3 C-terminal nuclease domain | endonuclease activity, inhibitor, ELISA |  | 20 µM |  | 14%
COC(=O)N(C)[C@@H](Cc1ccccc1)C(=O)N[C@@H](Cc1ccccc1)C(=O)N[C@@H](CC1CCCCC1)C(=O)N[C@@H](CCCNC(=N)N)C(=O)N[C@@H](CC(C)C)C(=O)N[C@@H](CCCNC(=N)N)C(=O)N[C@@H](CCCNC(=N)N)C(=O)N[C@H](C)C(=O)N[C@@H](CCCNC(=N)N)C(=O)N1CCC[C@H]1C(=O)N[C@@H](CCCCN)C(N)=O | Oprk1 (Rattus norvegicus, UniProt P34975) | adenylyl cyclase activity, agonist | CHO cells | 10 µM | baseline: dynorphin A(1-13) amide | > 40%
c1cncc(Nc2c3c(nc4ccccc24)CCCC3)c1 | ache | enzyme activity, inhibitor, Ellman |  | 100 µM |  | 52.8%
CCN(CC)CCOc1ccc(-c2nnn(Cc3ccc(OC)cc3)c2N)cc1 | TGF-beta receptor type-1, with RKIP (TGFBR1, Homo sapiens, UniProt P36897, R255A) | binding to RKIP |  | concentration not given, TGFBR1 R255A mutant |  | no inhibition
Cc1c(C(=O)Nc2cccc(C(F)(F)F)c2)cc(-c2ccccc2)n1CCCN1CCOCC1 | TRPV4 (Homo sapiens, UniProt Q9HBA0) | calcium influx, antagonist | Huh-7 | 1 µM, together with: GSK1016790A 10 nM |  | inhibited
c1cc(Nc2c3c(nc4ccccc24)CCCC3)c2cccnc2c1 | ache | enzyme activity, inhibitor, Ellman |  | 50 µM |  | 21%
C[C@@](O)(C(F)F)[C@H](NC(=O)c1ccc(C#CC#CC2CC2)cc1)C(=O)NO | ADAM17 (Homo sapiens, UniProt P78536) | enzyme activity, inhibitor |  | 30 µM |  | ≤ 30%
c1ccc2nc(Nc3c4c(nc5ccccc35)CCCC4)ccc2c1 | ache | enzyme activity, inhibitor, Ellman |  | 100 µM |  | 83.5%
Cc1ccc(/C=C/C(=O)c2ccc(N3CCNCC3)cc2)cc1 | Beta-secretase 1 (BACE1, Homo sapiens, UniProt P56817) | enzyme activity, inhibitor, fluorescence |  | 10 µM |  | 44.5%

A few entries again:
Structure (SMILES) | target | assay | system | setting | scale | inhibition
CCN(Cc1ccccc1)C(=O)CCc1nc(CN2CCN(C(=O)Cc3ccc(OC)c(OC)c3)CC2)no1 | SCN9A (Homo sapiens, UniProt Q15858) | sodium current, whole-cell patch clamp | HEK293, stable | 20 µM |  | 52 ± 6%
c1cc(Nc2c3c(nc4ccccc24)CCCC3)c2cccnc2c1 | ache | enzyme activity, inhibitor, Ellman |  | 50 µM |  | 21%
COc1ccnc(Nc2c3c(nc4cc(C)ccc24)CCCC3)c1 | ache | enzyme activity, inhibitor, Ellman |  | 100 µM |  | > 90%
O=C(NCc1cccc(Cl)c1F)c1cn(Cc2ccc(F)cc2)cc(O)c1=O | Tripartite terminase subunit 3 C-terminal nuclease domain | endonuclease activity, inhibitor, ELISA |  | 20 µM |  | 14%
Cc1ccc(/C=C/C(=O)c2ccc(N3CCNCC3)cc2)cc1 | Beta-secretase 1 (BACE1, Homo sapiens, UniProt P56817) | enzyme activity, inhibitor, fluorescence |  | 10 µM |  | 44.5%
CCOC(=O)[C@H]1Cc2c(cc([N+](=O)[O-])cc2[N+](=O)[O-])[C@H](O)[C@]12C(=O)Nc1ccccc12 | MDM2 (Homo sapiens, UniProt Q00987) |  |  | 1 µM |  | 47.8%
